Results gathered from unrelated publications.
Every numbered part comes from another study and shows a few of its results, in no order. Positions count from the first letter of the parent shown.

Sample 1
Target: ABI1, truncated, D143A, DHFR fusion (Arabidopsis thaliana)
Technique: DHFR PCA, deep sequencing
Sample: yeast
Notes: methotrexate growth selection, single substitutions
With: (+)-ABA 0.11 µM
Relative to: wild-type fitted maximum
Reading: higher = stronger binding
Quantity: relative binding score
Parent: PYL1, truncated, DHFR fusion (Arabidopsis thaliana); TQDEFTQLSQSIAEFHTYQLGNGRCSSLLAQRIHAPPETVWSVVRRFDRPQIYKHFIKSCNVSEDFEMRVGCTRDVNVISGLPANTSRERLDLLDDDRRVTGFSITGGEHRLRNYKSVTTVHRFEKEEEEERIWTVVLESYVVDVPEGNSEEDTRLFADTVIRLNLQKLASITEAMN
E109D: 87.9%
R155S: 0.525%
R24V: 10.4%
T106P: -5.51%
R46N: -11.9%
D144S: 4.29%
R46T: -1.28%
V121T: -3.3%
G81F: -5.26%
T73G: 1.33%
I52P: 2.08%
R45D: -2.69%
F5P: 7.27%
Y141P: 4.12%
D92Y: 6.64%

Sample 2
Target: TAR DNA-binding protein 43, full length, His tag (TARDBP, Homo sapiens, UniProt Q13148, residues 1-414)
Technique: RNA Bind-n-Seq
Form: RNA
Sample: in vitro
Concentration: 20 nM
Notes: 6-mer, flanks averaged, single round
With: 150 mM KCl
Relative to: input library
Reading: higher = stronger binding
Quantity: 6-mer enrichment (R)
ACGAAG: 0.971
AGUGAA: 0.961
CGCUAG: 0.83
UGUACU: 0.609
CAUUAG: 0.628
GGGGUC: 3.68
CAGAAA: 0.681
CGGUAU: 0.773
CGGACG: 1.54
ACGGAA: 0.854
GCGGAU: 1.39
CACUAC: 0.599
UAGAUU: 0.575

Sample 3
Target: RNA binding protein fox-1 homolog 2, RRM domain, GST-SBP tag (RBFOX2, Homo sapiens, UniProt O43251-10, residues 100-194)
Technique: RNA Bind-n-Seq
Form: RNA
Sample: in vitro
Concentration: 365 nM
Notes: natural RNA segment, single round, ends assumed
Relative to: no-protein control
Reading: higher = stronger binding
Quantity: RBNS enrichment (R)
Target sequence (chain): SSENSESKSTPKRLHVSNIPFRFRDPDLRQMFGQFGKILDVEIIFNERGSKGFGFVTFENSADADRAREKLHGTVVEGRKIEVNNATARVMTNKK
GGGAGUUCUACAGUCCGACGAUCGUCCAGUUUCAAGGCAUGUACAAUAAGCAUGGAGUCGUAUUGAUGAGGACUUACCUCCUGAAGAUAUGCUUGUUGCUUUAUGAUAUAUGUAAACUAUUCUUUAGAAAAAUUGGAAUUCUCGGGUGCCAA: 2.76
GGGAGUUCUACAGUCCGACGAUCGCCCUUCUUUCAAGGCAGAUUGAUAGGUCUUUAGAACAAACAUUUCACAGGGAUCAUUCUCUUCUCUCCUUUUUAAUGAAGUCCAAAAUCACAGGAAGUGAAGAACAUUUUGGAAUUCUCGGGUGCCAA: 0.354
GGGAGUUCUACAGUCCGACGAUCUUCCUUUCCUCGUGGCAGAGGCCUGCAUGUGGGUGCCAGAGGCCAGCUCUCCCCCUCCAUCUUGGGGGGGCGGAGCAGUUGGGCCCAAGCUGCCCGGGAGGGUGGGUGCAUGGAAUUCUCGGGUGCCAA: 12.9
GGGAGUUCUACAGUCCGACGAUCAGCUUACCUCUGCGAACUUCUAUCUGGUAUUGAAUCAGUUUCAGAAACACAGACAGAUCCAAGGAAAUGUCUCUUUAUAAUGUUCUUAGGAUGGACUAGACCCAUAAAUGUGGAAUUCUCGGGUGCCAA: 0.444
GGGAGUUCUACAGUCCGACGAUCGUGGACCCUGGUUGUAAAGAGUAAAUUGUAUCUUAGGAAACCAGUGUCACCUUUUUUUCACCUUUUAAUUUUAUAUUAUUUGCGUCAUACAUUUCCUGUAACGGAAGUGUUGGAAUUCUCGGGUGCCAA: 0.402
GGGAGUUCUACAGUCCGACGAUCCUUAAGCAGGGAAGAUAAGAGACCCUGCUCUCCACAGGUUGGUACAAAGGGGAACCUUGCUUCUGUGGUAGUAGAGGAGCAUUGUGCCUGGAAUUUCAGGAACUAUUGGAUGGAAUUCUCGGGUGCCAA: 0.337
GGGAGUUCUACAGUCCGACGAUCGAAGAUAAAGGGGCAGGAUCAAGGCUUUGUUUGAUCAUUGACCUACCCCCCCCCUCAGGUAGAUUCCCUAGGACAAUGCCAAACCCAGUUUAAGAGUUCCGAAACUGGAGUGGAAUUCUCGGGUGCCAA: 0.614
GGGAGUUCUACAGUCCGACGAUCCCACCAUACCCGGCCAAAAAUUUUUGCUUUUAAAGUUAAUGUUAUUUUGUGGUUAAACUUCUAAAGUUUUGAACUGUAAGCAGAAUUUUGUUUUGUGAUAUUUUAUUGUAUGGAAUUCUCGGGUGCCAA: 0.641
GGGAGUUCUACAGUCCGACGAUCGCACAUCUUGGAGAGCUUGUGGACAUACUAUCUUUCAAUGAAGUAUAUUCAAAGGAUAUUUAUAUUGGUGAUAUUUAAAUUAACACAGACAUGCAAAGCAUUCUUUUGCAUGGAAUUCUCGGGUGCCAA: 0.713
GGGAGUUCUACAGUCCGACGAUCCUCAAGAUGUGUCAUUUUCAGACAUUCUUCAUGUCAGAAGAGCUUUUGUUGUAAGGAGAAAACCAGCUCAGACUUUUGUCCCUGUAGGUGAUGGUAGUGGUCAGAAAUGGUGGAAUUCUCGGGUGCCAA: 0.478
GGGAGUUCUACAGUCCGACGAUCUGGACAUUCACCGUUUAUACAUGGGCUCACACCCGUGUGAGCAGAGGAGACCCUGUGUUUUCAGUGGAAUCAGAUCUUCCUCAGUUGGGGCCUUCCUUGUCCCCCCGUGGUGGAAUUCUCGGGUGCCAA: 0.375
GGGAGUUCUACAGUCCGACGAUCUCUGCCCGCUGCCCUCUGUCAUCCCAUUCAAGAUUGUGCCAUACCAGCUGAGGUUUUUCCUCUGUCUCUCUAGGAAUAGGGUCUGUUUCACAGGCCAUUUCUGUGAACCCUGGAAUUCUCGGGUGCCAA: 0.411

Sample 4
Target: Histone acetyltransferase KAT6A, winged helix 2, GST fusion (KAT6A, Homo sapiens, UniProt Q92794, residues 85-181)
Technique: protein binding microarray
Form: double-stranded DNA, one strand shown
Sample: in vitro
Concentration: not given
Notes: 8-mer, flanks averaged, mean of 2 arrays, mostly near background
Relative to: not given
Reading: higher = stronger binding
Quantity: E-score
Target sequence (chain): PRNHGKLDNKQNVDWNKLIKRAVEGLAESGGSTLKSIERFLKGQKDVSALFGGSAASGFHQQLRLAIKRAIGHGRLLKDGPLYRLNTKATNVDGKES
GGGTCCTA: -0.0948
ACCTGCTC: 0.13
AGCTAAGC: 0.0219
ACTGGCAC: -0.0503
AAACCGCT: -0.0863
CTATGCGA: -0.0631
ACTCCCCG: 0.215
ACGGTGGA: -0.109
AGCACACT: 0.021
AACGTTAT: -0.27
TCGGGAGA: 0.0132
GCGTAATA: -0.0622
ATAATTGA: -0.0891
ACTCGGAA: 0.165
ATGATGCC: 0.123
CAGTCTGC: -0.102
ATTGACGG: -0.0146
TAACTAAA: -0.182
CATGAAGG: -0.0544
ACCCCCCC: -0.225
CCCGCACC: 0.132
ACATCCGT: -0.0764
ATATAATA: 0.128
TCGTAAAA: -0.0927
GGGTGCAC: 0.025

Sample 5
Target: UBE2M UBC core domain (UniProt P61081)
Technique: yeast two-hybrid
Sample: yeast
Notes: mostly zero background
Relative to: not given
Reading: higher = stronger interaction
Quantity: lacZ reporter activity
B1: ZNF598 RING domain (UniProt Q86UK7); chain AAAPERGGGSCVLCCGDLEATALGRCDHPVCYRCSTKMRVLCEQRYCAVCREELRQVVFGK
B2: ARK2C RING domain (UniProt Q6ZSG1); chain EGEESDTDEKCTICLSMLEDGEDVRRLPCMHLFHQLCVDQWLAMSKKCPICRVDIETQLGAD
B3: TRIM69 RING domain (UniProt Q86WT6); chain VIQDITMELHCPLCNDWFRDPLMLSCGHNFCEACIQDFWRLQAKETFCPECKMLCQYNNCTF
B4: MID1 RING domain (UniProt O15344); chain METLESELTCPICLELFEDPLLLPCAHSLCFNCAHRILVSHCATNESVESITAFQCPTCRHVITLSQRGL
B5: RNF170 RING domain (UniProt Q96K19); chain TRQQFYTDMYCPICLHQASFPVETNCGHLFCGACIIAYWRYGSWLGAISCPICRQTVTLLLTVF
Residues (chain): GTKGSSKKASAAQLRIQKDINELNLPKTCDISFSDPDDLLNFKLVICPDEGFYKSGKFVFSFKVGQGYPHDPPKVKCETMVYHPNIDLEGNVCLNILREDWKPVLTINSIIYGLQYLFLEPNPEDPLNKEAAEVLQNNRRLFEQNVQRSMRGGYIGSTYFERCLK
EDEVSDNSAECVVCLSDVRDTLILPCRHLCLCNTCADTLRYQANNCPICRLPFRALLQIR (RNF157 RING domain (UniProt Q96PX1)): 0
YWAMDSTFELCKICAESNKDVKIEPCGHLLCSCCLAAWQHSDSQTCPFCRCEIKGWEAVS (CBLC RING domain (UniProt Q9ULV8)): 0
FPEHFVKSISCQICEHILADPVETNCKHVFCRVCILRCLKVMGSYCPSCRYPCFPTDLES (RAG1 RING domain (UniProt P15918)): 0
B1 (ZNF598 RING domain): 0
B2 (ARK2C RING domain): 0
B3 (TRIM69 RING domain): 0
PEELQAMDNVCIICREEMVTGAKRLPCNHIFHTSCLRSWFQRQQTCPTCRMDVLRASLPA (SYVN1 RING domain (UniProt Q86TM6)): 0
B4 (MID1 RING domain): 0
DAIPSLSECQCGICMEILVEPVTLPCNHTLCKPCFQSTVEKASLCCPFCRRRVSSWTRYH (RNF168 RING domain (UniProt Q8IYW5)): 0
B5 (RNF170 RING domain): 0

Sample 6
Target: CCNF, cyclin fold, Cln2 fusion (human)
Technique: yeast growth competition, sequencing
Sample: yeast
Notes: strong parent motif
Relative to: not given
Reading: higher = stronger binding
Quantity: normalised enrichment score
Parent: CDKN1C docking peptide (human); TSACRSLFGPVDH
TSACRSLFGAVDH [P10A]: 5.14
TSACRSLFGPVDA [H13A]: 5.58
TSACRSLFGPVAH [D12A]: 6.22
TSACRSAFGPVDH [L7A]: -0.183
TSACKSLLGPVDH [R5K F8L]: 0.524
TSACRALFGPVDH [S6A]: 5.39
TSACASLFGPVDH [R5A]: -0.749

A few entries again (sample 3):
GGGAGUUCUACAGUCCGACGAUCGCCCUUCUUUCAAGGCAGAUUGAUAGGUCUUUAGAACAAACAUUUCACAGGGAUCAUUCUCUUCUCUCCUUUUUAAUGAAGUCCAAAAUCACAGGAAGUGAAGAACAUUUUGGAAUUCUCGGGUGCCAA: 0.354
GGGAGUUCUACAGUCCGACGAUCUUCCUUUCCUCGUGGCAGAGGCCUGCAUGUGGGUGCCAGAGGCCAGCUCUCCCCCUCCAUCUUGGGGGGGCGGAGCAGUUGGGCCCAAGCUGCCCGGGAGGGUGGGUGCAUGGAAUUCUCGGGUGCCAA: 12.9
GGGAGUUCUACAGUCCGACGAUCAGCUUACCUCUGCGAACUUCUAUCUGGUAUUGAAUCAGUUUCAGAAACACAGACAGAUCCAAGGAAAUGUCUCUUUAUAAUGUUCUUAGGAUGGACUAGACCCAUAAAUGUGGAAUUCUCGGGUGCCAA: 0.444
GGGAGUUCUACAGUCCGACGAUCGUGGACCCUGGUUGUAAAGAGUAAAUUGUAUCUUAGGAAACCAGUGUCACCUUUUUUUCACCUUUUAAUUUUAUAUUAUUUGCGUCAUACAUUUCCUGUAACGGAAGUGUUGGAAUUCUCGGGUGCCAA: 0.402
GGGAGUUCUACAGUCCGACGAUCCUUAAGCAGGGAAGAUAAGAGACCCUGCUCUCCACAGGUUGGUACAAAGGGGAACCUUGCUUCUGUGGUAGUAGAGGAGCAUUGUGCCUGGAAUUUCAGGAACUAUUGGAUGGAAUUCUCGGGUGCCAA: 0.337
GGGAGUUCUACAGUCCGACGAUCGAAGAUAAAGGGGCAGGAUCAAGGCUUUGUUUGAUCAUUGACCUACCCCCCCCCUCAGGUAGAUUCCCUAGGACAAUGCCAAACCCAGUUUAAGAGUUCCGAAACUGGAGUGGAAUUCUCGGGUGCCAA: 0.614
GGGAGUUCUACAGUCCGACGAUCCCACCAUACCCGGCCAAAAAUUUUUGCUUUUAAAGUUAAUGUUAUUUUGUGGUUAAACUUCUAAAGUUUUGAACUGUAAGCAGAAUUUUGUUUUGUGAUAUUUUAUUGUAUGGAAUUCUCGGGUGCCAA: 0.641
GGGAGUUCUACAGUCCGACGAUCGCACAUCUUGGAGAGCUUGUGGACAUACUAUCUUUCAAUGAAGUAUAUUCAAAGGAUAUUUAUAUUGGUGAUAUUUAAAUUAACACAGACAUGCAAAGCAUUCUUUUGCAUGGAAUUCUCGGGUGCCAA: 0.713
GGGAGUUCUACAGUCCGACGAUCCUCAAGAUGUGUCAUUUUCAGACAUUCUUCAUGUCAGAAGAGCUUUUGUUGUAAGGAGAAAACCAGCUCAGACUUUUGUCCCUGUAGGUGAUGGUAGUGGUCAGAAAUGGUGGAAUUCUCGGGUGCCAA: 0.478
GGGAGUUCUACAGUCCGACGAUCUGGACAUUCACCGUUUAUACAUGGGCUCACACCCGUGUGAGCAGAGGAGACCCUGUGUUUUCAGUGGAAUCAGAUCUUCCUCAGUUGGGGCCUUCCUUGUCCCCCCGUGGUGGAAUUCUCGGGUGCCAA: 0.375
